Measurements from different studies.
Each numbered part is a random draw from the data of one study; scales do not carry over between parts. Substitutions count along the parent as printed.

Block 1
Target: CCNA1, cyclin fold, Cln2 fusion (human)
Method: yeast growth competition, sequencing
Medium: yeast
Setting: weak parent motif
Reference: not given
Reading: higher = stronger binding
Starting sequence: FZR1 docking peptide (human); QDYERRLLRQIVI
Under “normalised enrichment score”, `R6A` is recorded as 0.349.
`Y3A` — result for “normalised enrichment score”: 0.0924.
`R5K` — result for “normalised enrichment score”: 0.169.
For `V12A`, “normalised enrichment score” read 0.211.
`Q1A`: “normalised enrichment score” 0.371.
`I13A` — result for “normalised enrichment score”: 0.159.
`R5A`: “normalised enrichment score” 0.399.

Block 2
Target: Sal-like protein 4, full length isoform A (SALL4, Homo sapiens, UniProt Q9UJQ4, residues 1-1053)
Sequence of UniProt Q9UJQ4 (whole entry, looked up): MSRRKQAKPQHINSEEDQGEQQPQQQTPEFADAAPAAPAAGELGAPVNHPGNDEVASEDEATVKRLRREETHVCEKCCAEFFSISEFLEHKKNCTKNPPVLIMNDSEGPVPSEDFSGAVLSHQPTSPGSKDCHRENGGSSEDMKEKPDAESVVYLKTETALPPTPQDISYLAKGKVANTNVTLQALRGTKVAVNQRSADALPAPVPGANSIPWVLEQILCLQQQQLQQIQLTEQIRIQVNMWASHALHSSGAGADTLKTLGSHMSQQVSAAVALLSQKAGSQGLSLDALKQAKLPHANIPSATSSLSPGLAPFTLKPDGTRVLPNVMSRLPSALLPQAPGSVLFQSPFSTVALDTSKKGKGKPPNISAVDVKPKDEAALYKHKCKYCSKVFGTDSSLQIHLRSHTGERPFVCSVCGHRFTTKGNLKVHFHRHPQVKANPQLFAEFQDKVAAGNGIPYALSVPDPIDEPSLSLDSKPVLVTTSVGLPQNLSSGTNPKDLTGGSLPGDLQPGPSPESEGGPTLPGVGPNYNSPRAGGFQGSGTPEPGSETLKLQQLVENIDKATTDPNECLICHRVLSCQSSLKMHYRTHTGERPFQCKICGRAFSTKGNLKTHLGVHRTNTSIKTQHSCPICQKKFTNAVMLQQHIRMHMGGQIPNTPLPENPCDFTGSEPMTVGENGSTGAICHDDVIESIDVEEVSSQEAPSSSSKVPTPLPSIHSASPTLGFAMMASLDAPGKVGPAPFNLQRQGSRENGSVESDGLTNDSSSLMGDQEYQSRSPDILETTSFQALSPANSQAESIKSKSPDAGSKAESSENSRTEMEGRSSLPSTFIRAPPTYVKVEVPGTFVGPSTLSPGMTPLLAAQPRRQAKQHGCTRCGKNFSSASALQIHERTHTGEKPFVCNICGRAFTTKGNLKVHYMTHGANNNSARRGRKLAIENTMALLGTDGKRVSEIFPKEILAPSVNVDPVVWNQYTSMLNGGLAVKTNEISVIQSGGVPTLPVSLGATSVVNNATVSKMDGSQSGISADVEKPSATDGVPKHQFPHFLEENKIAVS
Method: universal PBM
Molecule type: double-stranded DNA, one strand shown
Medium: in vitro
Tested at: 600 nM
Setting: 8-mer, flanks averaged, mean of replicates
Reading: higher = stronger binding
`TGACCGCA` gave an E-score of -0.18.
With `CTCGGATA` the E-score was 0.0663.
`GGCCTTCA` has an E-score of -0.138.
`CAGCGAGG` gave an E-score of -0.158.
`ATGTAGAA` has an E-score of 0.172.
`ACCGTAAG` gave an E-score of 0.0219.
For `ATTAATTC`, the E-score was 0.338.
For `CCGCCAAA`, the E-score was -0.0967.
`CTAGGAAA` has an E-score of 0.0762.
For `ACTCGACT`, the E-score was -0.0259.
The E-score of `AGGTTACG` is reported as 0.0207.
`CCGACTAG` gave an E-score of -0.212.
With `CGGCATTC` the E-score was -0.0721.
`GTGCAGCA` has an E-score of -0.237.
With `GAGATTAA` the E-score was 0.143.
`CAAGACCC` gave an E-score of -0.165.
The E-score of `CCTGTCCG` is reported as -0.25.

Block 3
Target: Ras GTPase-activating protein-binding protein 1, RRM domain (G3BP1, Homo sapiens, UniProt Q13283)
Sequence of UniProt Q13283 (whole entry, looked up): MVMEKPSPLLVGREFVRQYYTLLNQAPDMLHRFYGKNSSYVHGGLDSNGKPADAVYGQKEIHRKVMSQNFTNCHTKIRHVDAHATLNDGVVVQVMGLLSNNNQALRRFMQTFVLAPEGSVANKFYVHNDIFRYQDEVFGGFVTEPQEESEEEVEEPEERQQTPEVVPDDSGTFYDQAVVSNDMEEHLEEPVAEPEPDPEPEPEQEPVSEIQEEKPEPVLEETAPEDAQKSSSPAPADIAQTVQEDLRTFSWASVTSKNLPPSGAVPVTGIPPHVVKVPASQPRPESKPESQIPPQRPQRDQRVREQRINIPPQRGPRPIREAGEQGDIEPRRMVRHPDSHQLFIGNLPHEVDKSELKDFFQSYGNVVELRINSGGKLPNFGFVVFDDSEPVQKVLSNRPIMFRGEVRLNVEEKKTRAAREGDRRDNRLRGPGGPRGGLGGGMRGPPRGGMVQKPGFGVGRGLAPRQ
Method: RNA Bind-n-Seq
Molecule type: RNA
Medium: in vitro
Tested at: 1 µM
Setting: whole 134-nt RNA, ends assumed
Added: 150 mM KCl
Reference: input library
Reading: higher = stronger binding
`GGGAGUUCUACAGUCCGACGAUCUAUGCCACGCCCUUUGAGGACUCGAAGAUCAUGGUCUCUGACUUUGGACUCUCCAAAAUCCAGGCUGGGAACAUGCUAGGCACCGCCUGUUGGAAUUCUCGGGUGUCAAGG` has a log2 enrichment of -0.0469.
With `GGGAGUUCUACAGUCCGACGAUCCCUGUGCUACACAUCGUAUGUACCGAAUCGGUUUUUUUGGGGUUUUUUUGGUUUUUUUGGGAAAGUAUUAUGUUACGCCGUUCGGAUCUGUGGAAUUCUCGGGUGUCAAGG` the log2 enrichment was -0.286.
For `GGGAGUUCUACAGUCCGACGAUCCUGUGCUACACAUCGUAUGUACCGAAUCGGGGUUUUUUUGGUUUUUUUGGGGUUUUUUUGGGAAAGUAUUAUGUUACGCCGUUCGGAUCUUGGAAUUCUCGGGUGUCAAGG`, the log2 enrichment was -0.211.
`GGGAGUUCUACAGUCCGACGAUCCUCAAGUCCUGUGCUACACAUCGUAUGUACCGAAUCGGCCGGGCCGGGCCGGGAAAGUAUUAUGUUACGCCGUUCGGAUCUGCACUUCCAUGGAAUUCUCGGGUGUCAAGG` has a log2 enrichment of -0.732.
For `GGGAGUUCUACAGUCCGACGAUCCCUGUGCUACACAUCGUAUGUACCGAAUCAAAUUUUUAAAUUUUUUUAAAUUUUUUUAAAAAAGUAUUAUGUUACGCCGUUCGGAUCUGCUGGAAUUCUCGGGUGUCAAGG`, the log2 enrichment was -0.471.
With `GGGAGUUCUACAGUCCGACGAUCUCCUGUGCUACACAUCGUAUGUACCGAAUCGGGGCCCCCCGGGGCCCCCCGGCCCCCCGGAAAGUAUUAUGUUACGCCGUUCGGAUCUGCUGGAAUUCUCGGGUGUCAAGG` the log2 enrichment was -0.367.
The log2 enrichment of `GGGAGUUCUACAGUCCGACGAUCCAAGUCCUGUGCUACACAUCGUAUGUACCGAAUCGGAAAAAAAGGUGGUUUUUGGAAAGUAUUAUGUUACGCCGUUCGGAUCUGCACUUCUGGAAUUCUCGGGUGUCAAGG` is reported as -0.175.
`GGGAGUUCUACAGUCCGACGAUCCAAGUCCUGUGCUACACAUCGUAUGUACCGAAUCGGGCCCGGGGCCCGGGGCCCGGAAAGUAUUAUGUUACGCCGUUCGGAUCUGCACUUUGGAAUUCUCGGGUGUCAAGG` gave a log2 enrichment of -1.13.
For `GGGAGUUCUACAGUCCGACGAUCUCCUGUGCUACACAUCGUAUGUACCGAAUCGGGGAAAAAGGGAAAAAGGGGAAAAAGGGAAAGUAUUAUGUUACGCCGUUCGGAUCUGCAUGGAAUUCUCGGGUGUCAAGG`, the log2 enrichment was -0.0505.

Block 4
Target: Histone acetyltransferase KAT6A, both winged helices, GST fusion (KAT6A, Homo sapiens, UniProt Q92794, residues 1-181)
Method: protein binding microarray
Molecule type: double-stranded DNA, one strand shown
Medium: in vitro
Tested at: not given
Setting: 8-mer, flanks averaged, mean of 2 arrays, mostly near background
Reference: not given
Reading: higher = stronger binding
Target sequence (chain): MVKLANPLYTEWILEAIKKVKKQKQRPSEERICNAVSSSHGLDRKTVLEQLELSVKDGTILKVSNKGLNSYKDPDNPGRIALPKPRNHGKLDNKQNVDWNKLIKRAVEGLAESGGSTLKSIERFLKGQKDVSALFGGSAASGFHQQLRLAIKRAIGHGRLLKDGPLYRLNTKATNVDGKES
`GTTAATCA` gave an E-score of -0.0319.
With `AATCTCTA` the E-score was -0.0473.
For `CTAACCAA`, the E-score was -0.145.
For `AATGAGGC`, the E-score was 0.00101.
`CTACCTGA` gave an E-score of -0.199.
`CCCTTTGA` has an E-score of -0.0957.
The E-score of `TGCACGAA` is reported as -0.0529.
The E-score of `GGAGATGA` is reported as -0.0599.
With `GAAATGAA` the E-score was -0.0313.
The E-score of `GCTGGTGA` is reported as -0.0317.
`ATCGGAGG` has an E-score of -0.00843.
`AAGCTACC` has an E-score of -0.021.
With `CAAGTCGC` the E-score was -0.00918.
For `ATTGGGAA`, the E-score was -0.108.
The E-score of `CTTGAGAC` is reported as -0.0139.
`CAAGAGAG` has an E-score of -0.246.
`CGCGCTGC` has an E-score of 0.295.
`AGAAATTA` gave an E-score of 0.0177.
For `CACTAACG`, the E-score was 0.117.
With `CTATAACC` the E-score was -0.0595.
With `GGGGGAAC` the E-score was -0.0866.
`ACTGTCCT` gave an E-score of -0.0897.
With `CCGGCAAC` the E-score was 0.189.
For `CGCAGAAA`, the E-score was 0.183.
With `AGTCCAGA` the E-score was -0.198.

Block 5
Target: Interferon regulatory factor 3, full length, phosphomimetic (IRF3, Homo sapiens, UniProt Q14653, residues 1-427, S386D/S396D/S398D/S402D/T404D/S405D)
Method: protein-binding microarray
Molecule type: double-stranded DNA, one strand shown
Medium: in vitro
Tested at: 2540 nM top
Setting: 60-bp whole probe
Added: salmon DNA 0.4 mg/ml
Reference: random background probes
Reading: higher = stronger binding
All sequences stand within: GCCTAGCAC … GTCTTGATTCGCTTGACGCTGCTG
Construct (chain): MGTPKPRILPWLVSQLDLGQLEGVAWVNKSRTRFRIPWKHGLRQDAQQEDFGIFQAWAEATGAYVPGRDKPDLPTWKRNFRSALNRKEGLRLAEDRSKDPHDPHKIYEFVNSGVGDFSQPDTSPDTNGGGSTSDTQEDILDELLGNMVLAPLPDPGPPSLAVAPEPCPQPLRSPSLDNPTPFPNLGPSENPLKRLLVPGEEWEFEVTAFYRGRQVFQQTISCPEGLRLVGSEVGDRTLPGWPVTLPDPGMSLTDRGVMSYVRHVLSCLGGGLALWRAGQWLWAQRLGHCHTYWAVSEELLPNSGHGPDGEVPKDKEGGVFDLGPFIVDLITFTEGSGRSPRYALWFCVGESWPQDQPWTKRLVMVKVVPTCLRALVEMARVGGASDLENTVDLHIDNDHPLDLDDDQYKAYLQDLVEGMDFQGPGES
Under “fitted relative affinity”, `TGTGCTTTCCTCGTGATGCTGTGCTAG` is recorded as 0.98 z-score.
`TCAAACCCCATTCTCAGACTGTGCTAG`: “fitted relative affinity” 1.21 z-score.
`TTAGGTATCGGGTAGCGGTTAGTGCTA`: “fitted relative affinity” 0.499 z-score.
`GACGGTCTGGGTCTCGGGACGTGCTAG`: “fitted relative affinity” -0.713 z-score.
For `TTAGGACTGGACTTTCGGGTAGTGCTA`, “fitted relative affinity” read -0.147 z-score.
For `GACGGTTTCGACTTTCGCGACGTGCTA`, “fitted relative affinity” read 3.98 z-score.
`TTAGAATTGAGTATCGATTAGTGCTAG`: “fitted relative affinity” 0.211 z-score.
For `GACTGACTGCTACTGCTGACGTGCTAG`, “fitted relative affinity” read -0.673 z-score.
`GACGGTTTCGACACTGGCGACGTGCTA`: “fitted relative affinity” 3.36 z-score.
Under “fitted relative affinity”, `GACGTTTTCGGGTATCGGGACGTGCTA` is recorded as 2.28 z-score.
`TTAGGACTGGGGACAGGGTTAGTGCTA`: “fitted relative affinity” -0.917 z-score.
Under “fitted relative affinity”, `TTAGGTAACCTTATCCTTTAGTGCTAG` is recorded as 1.79 z-score.
`TCACCTGTCCTTTTCTTACTGTGCTAG`: “fitted relative affinity” 2.57 z-score.
Under “fitted relative affinity”, `TTGCTTTCCTTTATGTACTCGTGCTAG` is recorded as 5.91 z-score.
Under “fitted relative affinity”, `GACGGTCTCGCACTGGGGACGTGCTAG` is recorded as -0.0903 z-score.
Under “fitted relative affinity”, `GACGTTTCCGGTTTCGGGACGTGCTAG` is recorded as 5.62 z-score.
